Measured values of several laboratories.
A part holds a random share of what one study measured. Substitutions count along the parent as printed.

Study 1
Target: TAR DNA-binding protein 43, full length, His tag (TARDBP, Homo sapiens, UniProt Q13148, residues 1-414)
Technique: RNA Bind-n-Seq
Molecule type: RNA
Matrix: in vitro
Tested at: 20 nM
Notes: 6-mer, flanks averaged, single round
Added: 150 mM LiCl
Baseline: input library
Reading: higher = stronger binding
Endpoint: 6-mer enrichment (R)
GCUAGC: 0.909
GGUUGU: 1.3
CGUUUG: 1.06
GACUUA: 0.878
AAGUCG: 0.917
GACGUA: 0.912
UGACGG: 0.966
GUUGUA: 1.19

Study 2
Target: RNA binding protein fox-1 homolog 2, RRM domain, GST-SBP tag (RBFOX2, Homo sapiens, UniProt O43251-10, residues 100-194)
Technique: RNA Bind-n-Seq
Molecule type: RNA
Matrix: in vitro
Tested at: 365 nM
Notes: natural RNA segment, single round, ends assumed
Baseline: no-protein control
Reading: higher = stronger binding
Endpoint: RBNS enrichment (R)
Shared flanks, not repeated: GGGAGUUCUACAGUCCGACGAUC … UGGAAUUCUCGGGUGCCAA
Residues (chain): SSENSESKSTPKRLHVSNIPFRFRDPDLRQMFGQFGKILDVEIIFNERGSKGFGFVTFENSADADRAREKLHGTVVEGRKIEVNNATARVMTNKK
UAUACCCAGGAGAAUAUGUAUACCAUGUGUGUUUGACUAAGUUCACAAGGGAAGUUUUUGGCUCUGCACUCCACAUUAUCCUUUAAUUUCAAUUUCCUGGGACUAUCCCA: 0.542
UUGUCACAGAAGAGAGAAAAGAUCAUUGAGGACAGUUGCCUUGGGAGAGUUCAAGUCUUUGUCGUUACACACUGCUGUUUUGAUUAUUGGUCUUAGUUUUGAUCCUGUUG: 0.709
CUUUGGCAAUGCAAAAUGACUCCUGACUGUUCCAAAUACUGAAAAGAAGUCUGCCUCUGAGUUACAGCUCUUUCUCAACAAGUACAGAGUUUGAGGCUUGCAGUUGCAAC: 0.646
GGUUUAGUGCUUUUUUAAAGGAAAGUUGUCCCAGGAUUCAUCCUAAAGAAAGCAAAAGUUAAUUCAACUGAUCCACCAAUGGAAUUAGAUGGGUAGAGUUGGGUUCUUGA: 0.455
CACAGUGCCUGGGGCGGAAGGAGGAGAGGUGUUGCGGUUUGCCCUGCUGCCUCCCCAGCAGGAACAAUAGUCAUAAAUGCACUUUUCACACUAAAGGUUUCUUUAUUAGU: 0.785
UUUCCAUUCUAUGAAGGGUGCGUGUUUCUGGUUUCCAGCAGCAGGAUAACAAGUGGGAAUUUACUCACUGACUUCUCAUUUAUCAUAAAAGCUGCAGCACCUUUAUGUAC: 0.289
ACAAAACAUGUUUAUAAAUGAACAGGAUGUAAUGUACAUAGAUGACAUUAAGAAAAUUUGUAUGAAAUAAUUUAGUCAUCAUGAAAUAUUUAGUUGUCAUAUAAAAACCC: 1.42
AAGCAGUCUUUCAAAAUUCCUACUUGUAUAUUCAUCCAUUGUUGACAAGGACAAAAUCAGUUGUAUUUACAAAACUCUUAACUCGGUAUUUUUUUUUUAAACUGAAUCCU: 0.498

Study 3
Target: Prothrombin, mature alpha-thrombin (F2, Homo sapiens, UniProt P00734)
Technique: aptamer microarray, sandwich
Molecule type: DNA with 2'F-ANA
Matrix: in vitro
Tested at: 200 nM
Notes: whole 15-mer aptamer, many near background
Added: Cy3 exosite-II aptamer, 400 nM
Reading: higher = stronger binding
Endpoint: mean fluorescence intensity
Sequence: GGTTGGTGTGGTTGG
2'F-ANA at 1 5 6 7 11 12 13 14 15: 51 a.u.
2'F-ANA at 3 4 6 10 15: 253 a.u.
2'F-ANA at 1 4 5 8 10 11 13 15: 61.4 a.u.
2'F-ANA at 1 2 5 9 10 15: 62.3 a.u.
2'F-ANA at 3 10 11 12 14 15: 403 a.u.
2'F-ANA at 1 3 4 6 8 10 12: 83.9 a.u.
2'F-ANA at 1 3 4 6 7 8 9 11 12 14 15: 77.1 a.u.
2'F-ANA at 1 2 4 6 9 10 13 14: 47.9 a.u.

Other studies, line by line
Parent: PafA, mature enzyme, eGFP fusion (Elizabethkingia meningoseptica, UniProt Q9KJX5); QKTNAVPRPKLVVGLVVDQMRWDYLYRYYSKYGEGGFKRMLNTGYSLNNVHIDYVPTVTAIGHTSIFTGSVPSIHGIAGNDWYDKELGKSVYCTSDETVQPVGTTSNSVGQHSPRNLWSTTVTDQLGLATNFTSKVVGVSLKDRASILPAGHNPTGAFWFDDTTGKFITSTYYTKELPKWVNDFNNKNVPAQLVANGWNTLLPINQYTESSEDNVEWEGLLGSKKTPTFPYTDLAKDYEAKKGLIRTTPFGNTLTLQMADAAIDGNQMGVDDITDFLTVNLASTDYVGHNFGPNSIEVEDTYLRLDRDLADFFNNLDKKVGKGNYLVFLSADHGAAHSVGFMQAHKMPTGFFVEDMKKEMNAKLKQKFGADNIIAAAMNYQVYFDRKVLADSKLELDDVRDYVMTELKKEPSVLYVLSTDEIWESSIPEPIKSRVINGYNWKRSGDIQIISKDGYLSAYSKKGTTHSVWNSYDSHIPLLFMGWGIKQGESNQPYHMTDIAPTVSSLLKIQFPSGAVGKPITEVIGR
K367V  oxyanion analog dissociation constant (tungstate, free oxyanion; microfluidic competitive inhibition; in vitro, cell-free expressed; not given, derived from inhibition constants, unchanged parent 2230 nM; lower = stronger binding): 2710 nM
